Published values pooled from the literature.
Each line is one published result; not all experiments were run side by side. ± marks the error that the study gave.

`CCCCC1NC(=O)c2ccccc21` (racemic): “black tail length” 3.4 ± 0.5 cm (thrombosis; mouse, carrageenan-induced thrombosis; oral, 50 mg/kg daily for 2 days, 48 h after carrageenan).
`CNC(=O)N(C)c1ccc(C(=O)Nc2ccc(C)cc2C(=O)Nc2ccc(Cl)cn2)c(OC)c1` — result for “concentration doubling prothrombin time”: > 30 µM (human plasma).
`N[C@@H](Cc1c[nH]c2ccccc12)C(=O)N1CCC[C@H]1C(=O)NCC(=O)NCC(=O)O` gave an activation energy of 24.6 ± 1.67 kcal/mol (diketopiperazine formation, Arrhenius plot, ESI-MS; 1-propanol; 70, 80, 90 °C, 0.5% acetic acid).
`COc1ccc2c(c1)c(CC(=O)OCOC(C)=O)c(C)n2C(=O)c1ccc(Cl)cc1`: “latency of nociceptive response” 17.6 ± 1.13 s (hot plate test; BALB/c mice; 100 mg/kg, 90 min).
`CC(C)C[C@H](NC(=O)[C@H](CCCNC(=N)N)NC(=O)CNC(=O)[C@@H](N)CC(C)C)C(=O)N[C@@H](CO)C(=O)N[C@@H](CCC(N)=O)C(=O)N[C@@H](CCC(=O)O)C(=O)N[C@@H](CC(C)C)C(=O)N[C@@H](Cc1c[nH]cn1)C(=O)N[C@@H](CCCNC(=N)N)C(=O)N[C@@H](CC(C)C)C(=O)N[C@@H](CCC(N)=O)C(=O)N[C@H](C(=O)N[C@@H](Cc1ccc(O)cc1)C(=O)N1CCC[C@H]1C(=O)N[C@@H](CCCNC(=N)N)C(=O)N[C@H](C(=O)N[C@@H](CC(N)=O)C(=O)N[C@H](C(=O)NCC(=O)N[C@@H](CO)C(=O)N[C@@H](CC(N)=O)C(=O)N[C@H](C(=O)N[C@@H](Cc1ccc(O)cc1)C(N)=O)[C@@H](C)O)[C@@H](C)O)[C@@H](C)O)[C@@H](C)O`: “Iba-1 level reduction” 50% (TgCRND8 mice, brain; icv, dose not given, 5 months; relative to: vehicle).
`O=C1/C(=C/c2ccc(O)c(O)c2)Oc2c1c(O)cc1oc3cc(O)c(O)cc3c21` has an EC50 of 3.34 mM (ABTS scavenging, absorbance).
`CSCC[C@H](NC(=O)[C@H](CO)NC(=O)[C@@H](N)CO)C(=O)N[C@@H](CCCCN)C(=O)N[C@@H](CC(C)C)C(=O)N[C@@H](CO)C(=O)N[C@@H](Cc1ccccc1)C(=O)N[C@@H](CCCNC(=N)N)C(=O)N[C@@H](C)C(=O)N[C@@H](CCCNC(=N)N)C(=O)N[C@@H](C)C(=O)N[C@@H](Cc1ccc(O)cc1)C(=O)NCC(=O)N[C@@H](Cc1ccccc1)C(=O)N[C@@H](CCCNC(=N)N)C(=O)NCC(=O)N1CCC[C@H]1C(=O)NCC(=O)N1CCC[C@H]1C(=O)N[C@@H](CCC(N)=O)C(=O)N[C@@H](CC(C)C)C(=O)O` has an ED50 of ~13 ng/g body weight (liver glycogen increase; wild-type mouse, normal chow, liver).
For `CCCCCN(CCCCC)C(C)C(=O)c1cc(C)c2ccc3cc(C(C)C)ccc3c2c1.Cl` (centres unmarked), “tumour volume reduction” read 93.6% (humanized PD-1 mouse, MC38-hPD-L1 tumour; intraperitoneal, 10 mg/kg, 10 days; relative to: vehicle).
`Cc1cc2c(cc1C1(c3ncc(C(=O)O)cn3)CC1)C(C)(C)CCC2(C)C` — result for “log2 fold change”: 0.51 (RNA sequencing, measured: Sfrp5; rat, brain; dose not given, 24 h; relative to: vehicle).
`CCCC[C@H](NC(=O)[C@@H](NC(=O)[C@H](CC(=O)O)NC(=O)[C@H](CCC(N)=O)NC(=O)[C@H](CC(C)C)NC(=O)[C@H](CC(C)C)NC(=O)[C@H](CCCN)NC(=O)[C@H](CCCNC(=N)N)NC(=O)[C@H](C)NC(=O)[C@H](CO)NC(=O)[C@H](CC(C)C)NC(=O)[C@H](CCC(N)=O)NC(=O)[C@H](CC)NC(=O)[C@H](CC(C)C)NC(=O)[C@@H](NC(=O)[C@H](CCCN)NC(=O)[C@H](CCCNC(=N)N)NC(=O)[C@H](Cc1ccc(O)cc1)NC(=O)[C@H](CO)NC(=O)[C@H](CC(N)=O)NC(=O)[C@@H](NC(=O)[C@H](Cc1c(F)c(F)c(F)c(F)c1F)NC(=O)[C@@H](NC(=O)[C@H](C)NC(=O)[C@H](CC(=O)O)NC(=O)[C@@H](C)NC(=O)CCc1ccc(O)cc1)[C@@H](C)CC)[C@@H](C)O)C(C)C)[C@@H](C)CC)C(=O)N[C@@H](CO)C(=O)N[C@@H](CCCNC(=N)N)C(=O)NCCCC(N)=O` gave a relative potency of 152 (GH release; male rat, serum; subcutaneous, dose not given, 30 min; relative to: GHRH(1-29)NH2).
The H2O2 scavenging of `CCCCSc1nnc(-c2ccc(N)cc2)o1` is reported as 58% (IC50).
For `COc1cc(/C=C/c2cc(O)cc(O)c2)ccc1O`, “initial DPPH scavenging rate” read 1.77 µmol/L/s (concentration not given).
The relative potency of `CCCC[C@H](NC(=O)[C@@H](NC(=O)[C@H](CC(=O)O)NC(=O)[C@H](CCC(N)=O)NC(=O)[C@H](CC(C)C)NC(=O)[C@H](CC(C)C)NC(=O)[C@H](CCCN)NC(=O)[C@H](CCCNC(=N)N)NC(=O)[C@H](C)NC(=O)[C@H](CO)NC(=O)[C@H](CC(C)C)NC(=O)[C@H](CCC(N)=O)NC(=O)[C@H](CC)NC(=O)[C@H](CC(C)C)NC(=O)[C@@H](NC(=O)[C@H](CCCN)NC(=O)[C@H](CCCNC(=N)N)NC(=O)[C@H](Cc1ccc(O)cc1)NC(=O)[C@H](CO)NC(=O)[C@H](CCC(N)=O)NC(=O)[C@@H](NC(=O)[C@H](Cc1ccccc1)NC(=O)[C@@H](NC(=O)[C@H](C)NC(=O)[C@H](CC(=O)O)NC(=O)[C@@H](C)NC(=O)[C@H](Cc1ccc(O)cc1)NC)[C@@H](C)CC)[C@@H](C)O)C(C)C)[C@@H](C)CC)C(=O)N[C@@H](CC(=O)O)C(=O)N[C@@H](CCCNC(=N)N)C(=O)NCCCCC(N)=O` is reported as 1 to 4 fold (GH release; rat, male, serum; subcutaneous, dose not given, 15 and 30 min; relative to: reference GHRH agonist JI-38).
`CC(=O)[O-].O.O.O.O.[Co+2].[O-]c1ccc(Br)cc1C=NCCN1CCOCC1` gave an inhibition of 58.5% (nitric oxide scavenging; 240 µM).
For `CC(C)[C@H](CO)Nc1nc(Nc2ccc(C(=O)NCCNS(=O)(=O)c3cccc4c(N(C)C)cccc34)c(Cl)c2)c2ncn(C(C)C)c2n1`, the TUNEL-positive cells was 8.9 ± 1.8% (ND2-SmoA1 mice, medulloblastoma tumour; dose not given).
`CC[C@@H](C)[C@H]1NC(=O)[C@@H]([C@H](C)O)NC(=O)[C@@H](Cc2c[nH]cn2)NC(=O)CNC(=O)[C@@H](CCCNC(=N)N)NC(=O)CNC(=O)[C@@H](Cc2ccccc2)NC1=O` — result for “minimal effective dose”: 0.005 % eye drop (VEGF-induced retinal vascular permeability; rat; eye drop, single dose).
The activation energy of `CC(C)[C@H](N)C(=O)N1CCC[C@H]1C(=O)NCC(=O)NCC(=O)O` is reported as 20.3 ± 0.239 kcal/mol (diketopiperazine formation, Arrhenius plot, ESI-MS; 1-propanol; 70, 80, 90 °C, 0.5% acetic acid).
For `CC[C@H](C)[C@H](NC(=O)[C@H](CC(N)=O)NC(=O)[C@H](CC(N)=O)NC(=O)[C@H](CCCNC(=N)N)NC(=O)[C@H](CC(N)=O)NC(=O)[C@H](CCCNC(=N)N)NC(=O)[C@H](CCCCN)NC(=O)[C@@H](NC(=O)[C@H](CC(N)=O)NC(=O)[C@H](CCSC)NC(=O)[C@H](CC(C)C)NC(=O)[C@H](Cc1c[nH]c2ccccc12)NC(=O)[C@H](CCC(N)=O)NC(=O)[C@@H](NC(=O)[C@H](Cc1ccccc1)NC(=O)[C@H](CC(=O)O)NC(=O)[C@H](CCC(N)=O)NC(=O)[C@H](C)NC(=O)[C@H](CCCNC(=N)N)NC(=O)[C@H](CCCNC(=N)N)NC(=O)[C@H](CO)NC(=O)[C@H](CC(=O)O)NC(=O)[C@H](CC(C)C)NC(=O)[C@H](Cc1ccc(O)cc1)NC(=O)[C@H](CCCCN)NC(=O)[C@H](CO)NC(=O)[C@H](Cc1ccc(O)cc1)NC(=O)[C@H](CC(=O)O)NC(=O)[C@H](CO)NC(=O)[C@@H](NC(=O)[C@H](Cc1ccccc1)NC(=O)[C@@H](NC(=O)CNC(=O)[C@H](CCC(=O)O)NC(=O)[C@@H](CO)NC(=O)[C@@H](N)Cc1c[nH]cn1)[C@@H](C)O)[C@@H](C)O)C(C)C)[C@@H](C)O)C(=O)N[C@@H](C)C(=O)N[C@@H](CSCC(=O)NCCOCCOCCOCCOCCC(=O)O[C@H]1CC[C@@]2(C)C(=CC[C@H]3[C@@H]4CC[C@H]([C@H](C)CCCC(C)C)[C@@]4(C)CC[C@@H]32)C1)C(N)=O`, the triglyceride level was 47 ± 6 mg/dL (diet-induced obese mice, plasma; subcutaneous, 1.9 µmol/kg, 14 days, chronic dosing).
Under “afterdischarge duration change”, `[2H]C([2H])([2H])C(c1cc2nnc(-c3cc(F)ccc3F)n2nc1OCc1ncnn1C)(C([2H])([2H])[2H])C([2H])([2H])[2H]` is recorded as -30% (amygdala-kindled Wistar rats, cortex; oral, 1 mg/kg, 2 h before stimulation; relative to: baseline).
`CCCC[C@H](NC(=O)[C@@H](NC(=O)[C@H](CC(=O)O)NC(=O)[C@H](CCC(N)=O)NC(=O)[C@H](CC(C)C)NC(=O)[C@H](CC(C)C)NC(=O)[C@H](CCCN)NC(=O)[C@H](CCCNC(=N)N)NC(=O)[C@H](C)NC(=O)[C@H](CO)NC(=O)[C@H](CC(C)C)NC(=O)[C@H](CCC(N)=O)NC(=O)[C@H](CC)NC(=O)[C@H](CC(C)C)NC(=O)[C@@H](NC(=O)[C@H](CCCN)NC(=O)[C@H](CCCNC(=N)N)NC(=O)[C@H](Cc1ccc(O)cc1)NC(=O)[C@H](CO)NC(=O)[C@H](CC(N)=O)NC(=O)[C@@H](NC(=O)[C@H](Cc1ccccc1)NC(=O)[C@@H](NC(=O)[C@H](C)NC(=O)[C@H](CC(=O)O)NC(=O)[C@@H](C)NC(=O)[C@H](Cc1ccc(O)cc1)NC)[C@@H](C)CC)[C@@H](C)O)C(C)C)[C@@H](C)CC)C(=O)N[C@@H](CC(=O)O)C(=O)N[C@@H](CCCNC(=N)N)C(=O)NCC` gave a relative potency of 125 (GH release; male rat, serum; subcutaneous, dose not given, 30 min; relative to: GHRH(1-29)NH2).

Some of these lines once more:
For `CCCCCN(CCCCC)C(C)C(=O)c1cc(C)c2ccc3cc(C(C)C)ccc3c2c1.Cl` (centres unmarked), “tumour volume reduction” read 93.6% (humanized PD-1 mouse, MC38-hPD-L1 tumour; intraperitoneal, 10 mg/kg, 10 days; relative to: vehicle).
`Cc1cc2c(cc1C1(c3ncc(C(=O)O)cn3)CC1)C(C)(C)CCC2(C)C` — result for “log2 fold change”: 0.51 (RNA sequencing, measured: Sfrp5; rat, brain; dose not given, 24 h; relative to: vehicle).
